Results from different studies.
Protocols differ between the studies behind these lines. Values joined by “and” are separate records of one study, mostly repeats; a detail may differ.
Target: Mitogen-activated protein kinase kinase kinase kinase 5 (MAP4K5, Homo sapiens, UniProt Q9Y4K4)

For `C=CC(=O)N1CCc2ccc(-n3c(=O)ccc4cnc5ccc(-c6cnn(C)c6)cc5c43)cc21`, the remaining binding was 100% (KINOMEscan; 1 µM; baseline: DMSO control).
For `CNC(=O)C1CCN(c2cc(C)c(F)cc2NC(=O)c2ccc(-c3cc(O)ccc3C)c(C)c2)CC1`, the remaining binding was 93% (binding, competition with immobilised ligand; 1 µM).
`Cc1cccc(O[C@H]2CCC[C@@H](C(C)CNCc3ccncc3)C2)c1` (relative stereo) gave an inhibition of -11% (enzyme activity, inhibitor; 10 µM).
`CCN1CCN(Cc2ccc(NC(=O)c3ccc(C)c(NC(=O)c4cncc(-c5cccs5)c4)c3)cc2C(F)(F)F)CC1` gave a remaining binding of 27% (binding, competition with immobilised ligand; 1 µM).
`CNC(=O)C[C@H](Cc1ccc(C#N)cc1)NC(=O)c1cc(-c2ccc(CN[C@H](C)c3ccc(C)cc3)o2)ccc1Cl` — result for “activity vs control”: 115% (enzyme activity, inhibitor; 1 µM).
Under “activity vs control”, `O=C(Cc1ccc(OCc2ccccc2)cc1)NC1(C(=O)O)CCN(C(=O)c2ccc(-c3cccc(Cl)c3)cc2)CC1` is recorded as 112% (enzyme activity, inhibitor; 10 µM).
The inhibition of `CN1CCN(Cc2ccc(-c3ccc(CO[C@H]4CCC[C@@H]4NC(=O)c4cc(-c5cnn(C)c5)cnc4N)cc3)cc2)CC1` is reported as 8% (enzyme activity, inhibitor; 0.1 µM).
With `COc1c(Cl)cccc1Nc1c(-c2ccncc2C#C[C@@]2(C)CCCN2C(=O)/C=C/CN(C)C)[nH]c2c1C(=O)NCC2` the remaining binding was 70% (binding, competition with immobilised ligand; 3 µM).
`NC(=O)[C@@H](O)C[C@H]1CCc2sc3ncnc(O[C@H]4CC[C@H](N5CCOCC5)CC4)c3c21` has an inhibition of 24% (enzyme activity, inhibitor; 10 µM).
`C=CC(=O)Nc1cccc(-c2cnc3[nH]cc(C(=O)NC(C)(C)C)c3n2)c1` gave an inhibition of 52% and 49% (kinase activity; 0.1 µM).
For `CCn1cc(C(=O)O)c(=O)c2c(N)c(F)c(NC3CCCCC3)cc21`, the inhibition was -0.9% (kinase activity; 0.1 µM, together with: ATP at Km).
`N[C@H]1CC[C@H](Nc2nccc(-c3cccnc3Oc3ccc(NC(=O)NC4CC4)c4ccccc34)n2)CC1` — result for “log2 LFQ intensity”: 25.6 and 25.9 and 25.7 (kinobead competition pulldown; HEK293/HCT116 lysate mixture; 10 µM, 1 h, 4 °C; lower = stronger competition).
`CC(C)=CC1OC(C)(C)C2C=C3C(=O)C(Cl)=CC(O)C3C3C(O)C4OC4C(=O)C132` (centres unmarked) gave a remaining binding of 91% (cell-free assay, competition with immobilised ligand; 10 µM).
`Nc1ncc2c(n1)-c1c([nH]c3ccc(C4=CCOCC4)cc13)CCC2` has a remaining binding of 100% (binding, competition with immobilised ligand; 1 µM).

For quick reference, copied from above:
With `COc1c(Cl)cccc1Nc1c(-c2ccncc2C#C[C@@]2(C)CCCN2C(=O)/C=C/CN(C)C)[nH]c2c1C(=O)NCC2` the remaining binding was 70% (binding, competition with immobilised ligand; 3 µM).
`NC(=O)[C@@H](O)C[C@H]1CCc2sc3ncnc(O[C@H]4CC[C@H](N5CCOCC5)CC4)c3c21` has an inhibition of 24% (enzyme activity, inhibitor; 10 µM).
